Results pooled from the literature.
Numbered parts are unrelated; each lists some results of a single study. Values joined by “and” are separate records of one study, mostly repeats; a detail may differ.
Sequence of UniProt Q8N752 (whole entry, looked up): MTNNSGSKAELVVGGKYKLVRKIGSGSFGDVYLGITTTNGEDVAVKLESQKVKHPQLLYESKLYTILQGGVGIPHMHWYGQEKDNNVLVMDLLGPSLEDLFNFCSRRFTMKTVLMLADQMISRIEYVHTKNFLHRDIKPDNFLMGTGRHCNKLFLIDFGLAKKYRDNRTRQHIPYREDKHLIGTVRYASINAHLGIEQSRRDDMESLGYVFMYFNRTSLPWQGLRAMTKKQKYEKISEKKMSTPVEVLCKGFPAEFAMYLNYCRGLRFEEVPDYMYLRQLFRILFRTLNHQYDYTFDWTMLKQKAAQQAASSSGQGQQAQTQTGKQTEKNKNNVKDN
Sequence of UniProt P49841 (whole entry, looked up): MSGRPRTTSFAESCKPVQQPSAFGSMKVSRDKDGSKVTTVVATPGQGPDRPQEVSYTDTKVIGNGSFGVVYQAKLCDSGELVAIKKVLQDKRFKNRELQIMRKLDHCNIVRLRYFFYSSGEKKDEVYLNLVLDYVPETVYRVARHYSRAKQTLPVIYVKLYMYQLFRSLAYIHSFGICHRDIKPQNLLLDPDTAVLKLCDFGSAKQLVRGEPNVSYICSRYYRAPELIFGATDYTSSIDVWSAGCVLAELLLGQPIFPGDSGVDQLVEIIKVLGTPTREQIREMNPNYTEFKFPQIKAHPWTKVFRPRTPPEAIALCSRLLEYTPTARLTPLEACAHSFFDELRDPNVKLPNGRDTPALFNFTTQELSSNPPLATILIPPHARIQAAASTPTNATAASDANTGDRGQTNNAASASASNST
Sequence of UniProt O15197 (whole entry, looked up): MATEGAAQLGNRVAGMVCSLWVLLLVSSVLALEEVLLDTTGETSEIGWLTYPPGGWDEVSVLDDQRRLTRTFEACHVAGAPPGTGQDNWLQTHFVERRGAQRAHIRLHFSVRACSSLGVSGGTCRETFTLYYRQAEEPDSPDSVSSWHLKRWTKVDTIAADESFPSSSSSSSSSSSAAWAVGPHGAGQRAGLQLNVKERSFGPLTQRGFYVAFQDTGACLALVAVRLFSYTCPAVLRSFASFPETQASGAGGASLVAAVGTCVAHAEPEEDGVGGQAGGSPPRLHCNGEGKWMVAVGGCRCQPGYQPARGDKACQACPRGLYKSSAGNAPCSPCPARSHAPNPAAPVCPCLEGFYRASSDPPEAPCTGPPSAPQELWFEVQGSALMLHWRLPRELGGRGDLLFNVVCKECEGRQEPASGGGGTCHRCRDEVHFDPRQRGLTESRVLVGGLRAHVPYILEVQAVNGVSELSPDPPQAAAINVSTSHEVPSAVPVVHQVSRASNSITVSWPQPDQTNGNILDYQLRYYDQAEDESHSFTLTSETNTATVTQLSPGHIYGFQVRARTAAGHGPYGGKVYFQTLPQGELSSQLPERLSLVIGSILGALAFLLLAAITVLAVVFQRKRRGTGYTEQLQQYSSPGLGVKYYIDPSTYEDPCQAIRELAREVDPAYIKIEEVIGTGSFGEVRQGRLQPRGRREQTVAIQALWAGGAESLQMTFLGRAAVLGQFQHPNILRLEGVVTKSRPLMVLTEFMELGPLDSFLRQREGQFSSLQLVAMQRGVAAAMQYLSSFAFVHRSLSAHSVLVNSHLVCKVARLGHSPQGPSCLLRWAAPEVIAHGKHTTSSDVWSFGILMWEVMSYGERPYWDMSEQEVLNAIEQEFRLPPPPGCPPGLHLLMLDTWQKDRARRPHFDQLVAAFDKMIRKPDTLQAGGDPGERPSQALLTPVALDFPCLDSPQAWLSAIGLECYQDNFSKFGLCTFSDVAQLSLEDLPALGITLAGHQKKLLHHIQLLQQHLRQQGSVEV
Sequence of UniProt Q9UQ88 (whole entry, looked up): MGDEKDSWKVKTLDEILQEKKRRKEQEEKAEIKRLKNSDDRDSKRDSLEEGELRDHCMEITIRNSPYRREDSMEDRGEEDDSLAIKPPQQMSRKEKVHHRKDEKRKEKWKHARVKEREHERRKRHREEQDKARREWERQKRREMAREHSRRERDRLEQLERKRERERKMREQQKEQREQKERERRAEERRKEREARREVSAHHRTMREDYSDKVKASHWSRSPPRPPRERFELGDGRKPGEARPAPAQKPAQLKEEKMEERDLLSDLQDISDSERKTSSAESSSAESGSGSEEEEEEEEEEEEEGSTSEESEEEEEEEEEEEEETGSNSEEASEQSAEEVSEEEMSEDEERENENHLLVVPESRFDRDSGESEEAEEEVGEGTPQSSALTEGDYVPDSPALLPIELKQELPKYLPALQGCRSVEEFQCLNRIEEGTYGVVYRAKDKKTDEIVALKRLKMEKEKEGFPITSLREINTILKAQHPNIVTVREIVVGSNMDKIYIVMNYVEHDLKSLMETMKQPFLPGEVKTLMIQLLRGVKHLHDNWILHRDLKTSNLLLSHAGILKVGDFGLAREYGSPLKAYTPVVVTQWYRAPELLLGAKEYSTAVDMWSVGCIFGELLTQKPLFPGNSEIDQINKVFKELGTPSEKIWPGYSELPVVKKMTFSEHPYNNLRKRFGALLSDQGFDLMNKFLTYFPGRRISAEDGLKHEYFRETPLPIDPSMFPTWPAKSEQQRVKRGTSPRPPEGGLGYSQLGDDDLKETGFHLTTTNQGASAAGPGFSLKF
Sequence of UniProt P42685 (whole entry, looked up): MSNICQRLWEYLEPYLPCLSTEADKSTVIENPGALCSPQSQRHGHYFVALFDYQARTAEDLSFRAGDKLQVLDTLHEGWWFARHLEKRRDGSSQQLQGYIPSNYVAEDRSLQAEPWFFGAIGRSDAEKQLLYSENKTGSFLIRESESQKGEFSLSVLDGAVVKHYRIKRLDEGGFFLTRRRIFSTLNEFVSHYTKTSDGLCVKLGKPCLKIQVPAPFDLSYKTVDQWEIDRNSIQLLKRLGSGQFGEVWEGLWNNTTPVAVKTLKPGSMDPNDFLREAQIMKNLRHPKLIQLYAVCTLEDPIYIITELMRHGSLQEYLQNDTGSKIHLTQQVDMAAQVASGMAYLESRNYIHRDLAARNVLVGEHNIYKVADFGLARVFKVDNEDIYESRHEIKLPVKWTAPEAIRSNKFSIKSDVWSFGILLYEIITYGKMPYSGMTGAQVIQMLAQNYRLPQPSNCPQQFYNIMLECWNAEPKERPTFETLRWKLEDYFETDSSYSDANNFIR
Sequence of UniProt Q96BR1 (whole entry, looked up): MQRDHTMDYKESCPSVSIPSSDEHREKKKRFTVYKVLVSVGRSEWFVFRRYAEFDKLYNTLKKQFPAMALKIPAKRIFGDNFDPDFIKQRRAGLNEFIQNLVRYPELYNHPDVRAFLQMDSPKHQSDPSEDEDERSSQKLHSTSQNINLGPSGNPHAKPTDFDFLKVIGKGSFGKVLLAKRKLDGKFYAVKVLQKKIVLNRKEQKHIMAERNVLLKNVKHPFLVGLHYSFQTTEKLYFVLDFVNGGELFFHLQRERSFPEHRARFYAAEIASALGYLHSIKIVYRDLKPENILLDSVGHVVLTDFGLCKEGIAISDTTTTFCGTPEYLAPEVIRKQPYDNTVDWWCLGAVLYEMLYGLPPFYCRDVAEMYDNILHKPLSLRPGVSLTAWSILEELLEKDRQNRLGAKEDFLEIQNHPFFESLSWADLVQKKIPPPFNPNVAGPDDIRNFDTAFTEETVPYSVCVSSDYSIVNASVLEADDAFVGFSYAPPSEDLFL

Block 1
Compound: CC[C@@]1(c2cccc(-c3c(F)cncc3OC)c2)C2=C(Nc3n[nH]cc31)[C@H](F)C(C)(C)CC2=O (single isomer, unassigned)
Tested at: 1 µM
The remaining binding was 84% (EPHB6 (Homo sapiens, UniProt O15197); binding, competition with immobilised ligand).
It gave 61% for remaining binding (DSTYK (Homo sapiens, UniProt Q6XUX3); binding, competition with immobilised ligand).
Ribosomal protein S6 kinase alpha-4, N-terminal kinase domain (RPS6KA4, Homo sapiens, UniProt O75676); kinase binding, KINOMEscan; baseline: DMSO control — remaining binding: 78%.
It gave 100% for remaining binding (CDC42BPA (Homo sapiens, UniProt Q5VT25); binding, competition with immobilised ligand).
For CDKL5 (Homo sapiens, UniProt O76039); kinase binding, KINOMEscan; baseline: DMSO control: remaining binding read 82%.
GSK3B (Homo sapiens, UniProt P49841); kinase binding, KINOMEscan; baseline: DMSO control — remaining binding: 0.5%.
The remaining binding was 74% (CSNK1A1L (Homo sapiens, UniProt Q8N752); kinase binding, KINOMEscan; baseline: DMSO control).
It gave 68% for remaining binding (SGK3 (Homo sapiens, UniProt Q96BR1); binding, competition with immobilised ligand).
For CDK11A (Homo sapiens, UniProt Q9UQ88); kinase binding, KINOMEscan; baseline: DMSO control: remaining binding read 100%.
For FRK (Homo sapiens, UniProt P42685); kinase binding, KINOMEscan; baseline: DMSO control: remaining binding read 100%.
For EIF2AK4 (Homo sapiens, UniProt Q9P2K8, S808G); kinase binding, KINOMEscan; baseline: DMSO control: remaining binding read 100%.
The remaining binding was 77% (PDPK1 (Homo sapiens, UniProt O15530); kinase binding, KINOMEscan; baseline: DMSO control).
RIPK2 (Homo sapiens, UniProt O43353); binding, competition with immobilised ligand — remaining binding: 100%.

Block 2
SMILES: CCN1/C(=C/C=C2\CCCC(/C=C/C3=[N+](CC)c4ccccc4C3(C)C)=C2NCCCCCCCCN2CCC(Nc3nc4ccccc4n3Cc3ccc(F)cc3)CC2)C(C)(C)c2ccccc21
Cell line: U-87 MG
Tested at: concentration not given
Baseline: DMSO
The “log2 fold change” was -1.95 (refers to: HYLS1 mRNA).
It gave 1.31 for “log2 fold change” (refers to: CEBPG mRNA).
For refers to: NIPAL1 mRNA: “log2 fold change” read 2.05.
For refers to: FAM72B mRNA: “log2 fold change” read -2.39.
It gave 1.4 for “log2 fold change” (refers to: ASB1 mRNA).
refers to: ELF3 mRNA — “log2 fold change”: 4.3.
For refers to: SUV39H1 mRNA: “log2 fold change” read -2.14.
It gave -1.2 for “log2 fold change” (refers to: LMNB2 mRNA).
It gave -2.53 for “log2 fold change” (refers to: C21orf58 mRNA).
refers to: HMGB3 mRNA — “log2 fold change”: -1.25.
For refers to: LRRC49 mRNA: “log2 fold change” read 2.94.
refers to: ADGRB2 mRNA — “log2 fold change”: -1.03.
For refers to: FAM72A mRNA: “log2 fold change” read -1.64.
The “log2 fold change” was -1.59 (refers to: USP6 mRNA).
The “log2 fold change” was 1.41 (refers to: IFRD1 mRNA).

Block 3
Compound: Cc1nc(C)c(C=[N+]([O-])C(C)(C)C)nc1C
Setting: unit not given
Baseline: β-actin
For western blot, refers to: HO-1; MPTP mouse model, substantia nigra nuclei; 30 mg/kg: protein level read 79.8 and 113 and 76.7.
For primary rat midbrain neurons; Western blot, refers to: MEF2D; 30 µM, with: MPP+: protein level read 72.1 and 113 and 78.8.
The protein level was 99.9 and 65.3 and 82.1 and 72.6 (Western blot, refers to: TFAM; MPTP-treated mice, substantia nigra cytosol; 10 mg/kg).
The protein level was 98.3 and 88.1 and 102 (western blot, refers to: PGC-1α; MPTP mouse model, substantia nigra nuclei; 30 mg/kg).
It gave 144 and 121 and 95.8 and 100 for protein level (Western blot, refers to: MEF2D; MPTP-treated mice, substantia nigra cytosol; 90 mg/kg).
primary rat midbrain neurons; Western blot, refers to: SIRT1; 300 µM, with: MPP+ — protein level: 167 and 146 and 161.
The protein level was 91.4 and 115 and 151 (Western blot, refers to: PGC-1α; primary midbrain neurons, rat; 300 µM, with: MPP+).
Western blot, refers to: PGC-1α; primary midbrain neurons, rat; 30 µM, with: MPP+ — protein level: 87.5 and 110 and 114.
For Western blot, refers to: tyrosine hydroxylase; MPTP mouse model, substantia nigra; 30 mg/kg: protein level read 105 and 99.5 and 90.4 and 103.

Block 4
Structure (SMILES): C[C@@H]1CN(c2ccc(-c3cc(C(=O)NCCOCCOCCOCCOCCOCCOCCNC(=O)/C=C/c4[nH]cc(C(=O)N[C@@H](CC(N)=O)c5ccc(F)c(Cl)c5)c4-c4ccc(Cl)cc4F)ccc3F)cc2NC(=O)c2ccc(F)cc2C(F)(F)F)C[C@H](C)N1C
Effect on: thermal unfolding
Technique: differential scanning fluorimetry
Tested at: 5.5 µM
Reading: higher = more unfolded
DCAF1: DDB1- and CUL4-associated factor 1 (DCAF1, Homo sapiens, UniProt Q9Y4B6)
Sequence of UniProt Q9Y4B6 (whole entry, looked up): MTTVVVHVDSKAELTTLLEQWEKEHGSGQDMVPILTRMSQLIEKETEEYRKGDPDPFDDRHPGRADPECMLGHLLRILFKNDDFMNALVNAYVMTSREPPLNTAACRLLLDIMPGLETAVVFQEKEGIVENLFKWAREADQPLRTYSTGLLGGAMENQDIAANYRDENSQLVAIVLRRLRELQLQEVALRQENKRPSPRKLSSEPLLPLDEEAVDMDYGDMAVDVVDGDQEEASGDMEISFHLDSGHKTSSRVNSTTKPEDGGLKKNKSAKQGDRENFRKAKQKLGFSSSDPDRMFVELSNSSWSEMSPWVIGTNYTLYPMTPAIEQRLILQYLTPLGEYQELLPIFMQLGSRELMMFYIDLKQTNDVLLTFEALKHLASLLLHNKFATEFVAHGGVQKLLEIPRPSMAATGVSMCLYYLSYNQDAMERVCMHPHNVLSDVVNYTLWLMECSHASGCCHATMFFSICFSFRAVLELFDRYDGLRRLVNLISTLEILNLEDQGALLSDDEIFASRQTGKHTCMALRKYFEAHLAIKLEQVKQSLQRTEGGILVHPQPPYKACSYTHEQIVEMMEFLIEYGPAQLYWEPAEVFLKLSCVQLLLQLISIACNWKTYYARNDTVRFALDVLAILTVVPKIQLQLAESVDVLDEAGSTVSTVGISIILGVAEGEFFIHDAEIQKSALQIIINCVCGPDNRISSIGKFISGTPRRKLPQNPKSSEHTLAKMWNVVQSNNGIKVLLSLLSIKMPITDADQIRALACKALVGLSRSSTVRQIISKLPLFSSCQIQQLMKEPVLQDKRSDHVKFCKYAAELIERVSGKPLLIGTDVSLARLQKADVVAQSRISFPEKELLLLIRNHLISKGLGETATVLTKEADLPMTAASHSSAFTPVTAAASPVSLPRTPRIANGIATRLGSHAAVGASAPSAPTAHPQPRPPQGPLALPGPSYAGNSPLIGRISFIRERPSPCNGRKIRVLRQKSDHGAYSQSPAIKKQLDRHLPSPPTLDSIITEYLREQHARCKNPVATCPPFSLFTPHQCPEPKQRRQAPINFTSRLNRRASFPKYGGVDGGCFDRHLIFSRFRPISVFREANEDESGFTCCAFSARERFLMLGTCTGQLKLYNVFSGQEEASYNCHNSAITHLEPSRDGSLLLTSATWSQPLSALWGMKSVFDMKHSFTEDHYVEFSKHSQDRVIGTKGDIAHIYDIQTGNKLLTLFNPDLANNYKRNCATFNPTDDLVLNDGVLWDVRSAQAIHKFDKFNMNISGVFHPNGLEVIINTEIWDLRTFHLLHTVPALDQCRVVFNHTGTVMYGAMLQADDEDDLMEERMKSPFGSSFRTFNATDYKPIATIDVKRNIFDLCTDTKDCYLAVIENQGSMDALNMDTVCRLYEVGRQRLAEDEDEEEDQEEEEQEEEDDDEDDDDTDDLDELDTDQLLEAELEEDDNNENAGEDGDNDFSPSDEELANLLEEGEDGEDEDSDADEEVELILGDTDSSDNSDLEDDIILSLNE
WDR5: WD repeat-containing protein 5 (WDR5, Homo sapiens, UniProt P61964)
For DCAF1; 94.41 °C: “SYPRO Orange fluorescence” read 29000 a.u.
The “SYPRO Orange fluorescence” was 15700 a.u. (WDR5; 58.01 °C).
It gave 11100 a.u. for “SYPRO Orange fluorescence” (DCAF1; 39.2 °C).
DCAF1; 25.4 °C — “SYPRO Orange fluorescence”: 7470 a.u.
It gave 64100 a.u. for “SYPRO Orange fluorescence” (WDR5; 83.61 °C).
For WDR5; 75.81 °C: “SYPRO Orange fluorescence” read 52100 a.u.
It gave 34000 a.u. for “SYPRO Orange fluorescence” (DCAF1; 87.81 °C).
The “SYPRO Orange fluorescence” was 49300 a.u. (DCAF1; 69.01 °C).
For WDR5; 45 °C: “SYPRO Orange fluorescence” read 14600 a.u.
For DCAF1; 52.81 °C: “SYPRO Orange fluorescence” read 21900 a.u.
The “SYPRO Orange fluorescence” was 49400 a.u. (WDR5; 94.01 °C).

Some of these lines once more (block 1):
For CDKL5 (Homo sapiens, UniProt O76039); kinase binding, KINOMEscan; baseline: DMSO control: remaining binding read 82%.
GSK3B (Homo sapiens, UniProt P49841); kinase binding, KINOMEscan; baseline: DMSO control — remaining binding: 0.5%.
The remaining binding was 74% (CSNK1A1L (Homo sapiens, UniProt Q8N752); kinase binding, KINOMEscan; baseline: DMSO control).
It gave 68% for remaining binding (SGK3 (Homo sapiens, UniProt Q96BR1); binding, competition with immobilised ligand).
For CDK11A (Homo sapiens, UniProt Q9UQ88); kinase binding, KINOMEscan; baseline: DMSO control: remaining binding read 100%.
For FRK (Homo sapiens, UniProt P42685); kinase binding, KINOMEscan; baseline: DMSO control: remaining binding read 100%.
